Assay results collected from several papers.
A part holds a random share of what one study measured.
UniProt P34969, sequence (whole entry, looked up): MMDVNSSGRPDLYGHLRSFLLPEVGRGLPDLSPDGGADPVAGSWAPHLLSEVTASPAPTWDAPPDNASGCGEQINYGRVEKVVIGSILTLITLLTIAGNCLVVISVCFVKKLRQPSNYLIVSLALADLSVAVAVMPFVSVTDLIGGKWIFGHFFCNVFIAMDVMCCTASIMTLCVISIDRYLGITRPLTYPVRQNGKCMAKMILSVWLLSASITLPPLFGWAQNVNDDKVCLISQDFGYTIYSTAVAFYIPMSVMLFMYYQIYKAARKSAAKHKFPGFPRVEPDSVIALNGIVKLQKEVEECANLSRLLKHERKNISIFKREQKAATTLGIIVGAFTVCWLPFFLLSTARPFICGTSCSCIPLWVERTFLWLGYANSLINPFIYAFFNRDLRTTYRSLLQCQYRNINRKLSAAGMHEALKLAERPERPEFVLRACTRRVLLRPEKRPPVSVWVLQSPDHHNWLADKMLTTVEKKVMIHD
UniProt P08173, sequence (whole entry, looked up): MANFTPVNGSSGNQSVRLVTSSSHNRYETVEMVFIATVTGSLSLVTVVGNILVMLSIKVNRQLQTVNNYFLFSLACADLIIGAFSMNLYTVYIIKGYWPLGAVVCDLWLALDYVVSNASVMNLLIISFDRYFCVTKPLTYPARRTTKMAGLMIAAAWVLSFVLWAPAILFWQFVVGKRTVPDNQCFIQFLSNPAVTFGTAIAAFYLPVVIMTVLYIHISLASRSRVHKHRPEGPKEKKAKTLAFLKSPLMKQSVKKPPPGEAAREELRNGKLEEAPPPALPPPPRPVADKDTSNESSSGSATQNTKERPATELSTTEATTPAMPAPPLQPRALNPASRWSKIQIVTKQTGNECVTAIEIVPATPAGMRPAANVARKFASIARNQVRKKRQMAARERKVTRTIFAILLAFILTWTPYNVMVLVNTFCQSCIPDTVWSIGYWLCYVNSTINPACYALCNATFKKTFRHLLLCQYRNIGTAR
UniProt P18089, sequence (whole entry, looked up): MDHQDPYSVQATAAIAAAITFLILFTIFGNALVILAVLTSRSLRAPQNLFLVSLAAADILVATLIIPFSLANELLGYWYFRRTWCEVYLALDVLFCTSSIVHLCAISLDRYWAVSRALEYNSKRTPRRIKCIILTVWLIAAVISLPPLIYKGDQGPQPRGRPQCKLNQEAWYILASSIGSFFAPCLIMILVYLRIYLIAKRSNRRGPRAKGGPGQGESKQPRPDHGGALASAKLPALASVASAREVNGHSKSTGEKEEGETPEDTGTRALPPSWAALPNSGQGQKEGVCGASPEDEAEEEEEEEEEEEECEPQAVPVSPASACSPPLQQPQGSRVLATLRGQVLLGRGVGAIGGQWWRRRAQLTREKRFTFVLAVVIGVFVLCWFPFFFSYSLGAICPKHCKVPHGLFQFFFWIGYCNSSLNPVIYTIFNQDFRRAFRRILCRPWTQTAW
UniProt P35368, sequence (whole entry, looked up): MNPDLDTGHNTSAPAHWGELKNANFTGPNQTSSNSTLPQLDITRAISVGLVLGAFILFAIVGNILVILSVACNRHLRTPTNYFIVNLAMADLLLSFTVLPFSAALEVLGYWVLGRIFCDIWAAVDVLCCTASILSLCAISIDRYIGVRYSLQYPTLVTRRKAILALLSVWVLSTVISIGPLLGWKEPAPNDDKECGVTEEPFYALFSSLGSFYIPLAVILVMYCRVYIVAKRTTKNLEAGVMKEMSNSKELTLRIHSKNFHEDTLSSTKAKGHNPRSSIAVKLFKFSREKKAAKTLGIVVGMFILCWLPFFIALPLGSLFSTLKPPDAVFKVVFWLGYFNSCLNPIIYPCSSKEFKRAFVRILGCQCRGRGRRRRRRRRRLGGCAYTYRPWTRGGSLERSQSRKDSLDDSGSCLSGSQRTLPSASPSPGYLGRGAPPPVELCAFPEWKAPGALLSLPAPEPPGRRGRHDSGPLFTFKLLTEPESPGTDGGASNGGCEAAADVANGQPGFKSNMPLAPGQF
UniProt P35367, sequence (whole entry, looked up): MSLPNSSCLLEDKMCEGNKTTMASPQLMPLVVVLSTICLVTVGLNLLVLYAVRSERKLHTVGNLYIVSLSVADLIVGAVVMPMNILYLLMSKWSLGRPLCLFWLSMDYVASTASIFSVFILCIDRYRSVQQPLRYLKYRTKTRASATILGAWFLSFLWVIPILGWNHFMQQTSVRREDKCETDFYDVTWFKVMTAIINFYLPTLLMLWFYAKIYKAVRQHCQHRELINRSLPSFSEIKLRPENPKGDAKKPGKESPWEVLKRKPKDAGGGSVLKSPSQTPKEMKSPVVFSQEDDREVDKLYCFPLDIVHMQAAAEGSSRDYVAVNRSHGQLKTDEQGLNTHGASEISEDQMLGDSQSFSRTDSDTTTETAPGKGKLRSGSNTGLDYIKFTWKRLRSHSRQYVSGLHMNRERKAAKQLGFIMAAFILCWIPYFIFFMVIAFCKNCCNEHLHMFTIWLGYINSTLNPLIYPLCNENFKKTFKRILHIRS
UniProt P25100, sequence (whole entry, looked up): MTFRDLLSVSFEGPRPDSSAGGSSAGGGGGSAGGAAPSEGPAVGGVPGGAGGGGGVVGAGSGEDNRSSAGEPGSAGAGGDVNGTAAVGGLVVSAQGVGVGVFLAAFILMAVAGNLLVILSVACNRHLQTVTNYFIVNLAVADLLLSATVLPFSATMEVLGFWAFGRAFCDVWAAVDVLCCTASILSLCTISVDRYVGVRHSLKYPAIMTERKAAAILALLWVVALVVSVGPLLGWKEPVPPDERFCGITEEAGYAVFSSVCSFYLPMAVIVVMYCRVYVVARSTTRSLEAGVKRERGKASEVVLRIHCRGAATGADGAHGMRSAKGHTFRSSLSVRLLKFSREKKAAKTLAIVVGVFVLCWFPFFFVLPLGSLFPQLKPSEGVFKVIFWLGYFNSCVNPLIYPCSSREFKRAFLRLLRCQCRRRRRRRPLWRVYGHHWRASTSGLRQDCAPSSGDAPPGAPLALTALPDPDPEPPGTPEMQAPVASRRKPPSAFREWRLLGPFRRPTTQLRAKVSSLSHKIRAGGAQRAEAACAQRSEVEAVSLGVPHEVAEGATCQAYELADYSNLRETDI

Sample 1 — observed: enzyme activity; mode: inhibitor; concentration: 10 µM
Target: Calcium/calmodulin-dependent protein kinase type II subunit alpha (CAMK2A, Homo sapiens, UniProt Q9UQM7)
UniProt Q9UQM7, sequence (whole entry, looked up): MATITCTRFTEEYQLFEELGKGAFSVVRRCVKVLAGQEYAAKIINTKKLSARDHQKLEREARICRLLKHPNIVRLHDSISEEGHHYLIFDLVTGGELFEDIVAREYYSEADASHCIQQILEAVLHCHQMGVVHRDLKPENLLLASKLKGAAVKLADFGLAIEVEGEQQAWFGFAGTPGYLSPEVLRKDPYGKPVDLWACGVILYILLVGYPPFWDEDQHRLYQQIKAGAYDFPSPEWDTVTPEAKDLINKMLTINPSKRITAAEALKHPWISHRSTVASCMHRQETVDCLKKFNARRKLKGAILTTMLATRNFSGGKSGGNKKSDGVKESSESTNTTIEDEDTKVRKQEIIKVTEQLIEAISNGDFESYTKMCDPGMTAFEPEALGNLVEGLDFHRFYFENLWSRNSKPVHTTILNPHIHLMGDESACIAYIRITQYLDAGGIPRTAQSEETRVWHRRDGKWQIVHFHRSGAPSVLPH
| SMILES | inhibition [%] |
| --- | --- |
| CCCC(=O)Nc1ncnc2c1ncn2[C@@H]1O[C@@H]2COP(=O)(O)O[C@H]2[C@H]1OC(=O)CCC | -3 |
| CC(CN(C)C)CN1c2ccccc2CCc2ccccc21 (centres unmarked) | -11 |
| CC1=CC=C(C(C)C)CC1 | -19 |
| NC(=O)N1c2ccccc2C[C@H](O)c2ccccc21 | 6 |
| COc1cc2nc(N3CCN(C(=O)[C@H]4CCCO4)CC3)nc(N)c2cc1OC | -3 |
| COc1cc(/C=C/C(=O)OC2[C@H](O)CC(O)(C(=O)O)C[C@H]2O)ccc1O (some centres unmarked) | 10 |
| O=Cc1ccc(O[C@@H]2O[C@H](CO)[C@@H](O)[C@@H](O)[C@H]2O)cc1 | 0 |
| NS(=O)(=O)c1cc(C2(O)NC(=O)c3ccccc32)ccc1Cl (centres unmarked) | 1 |
| COc1ccc(-c2cc(=O)c3c(OC)c(OC)c(OC)c(OC)c3o2)cc1OC | -45 |
| COc1ccccc1C=O | 28 |
| CC/C=C\C/C=C\C/C=C\C/C=C\C/C=C\CCCC(=O)OCC | -15 |
| CC(C)OC(=O)C(C)(C)Oc1ccc(C(=O)c2ccc(Cl)cc2)cc1 | -11 |
| O=C(O[C@H]1[C@H](Oc2c(-c3ccc(O)c(O)c3)oc3cc(O)cc(O)c3c2=O)O[C@H](CO)[C@H](O)[C@@H]1O)c1cc(O)c(O)c(O)c1 | -63 |
| COc1ccc(-c2cc(=O)c3c(O)cc(O[C@@H]4O[C@H](CO)[C@@H](O)[C@H](O)[C@H]4O)cc3o2)cc1 | -1 |
| NS(=O)(=O)c1cc2c(cc1Cl)NC(C1CC3C=CC1C3)NS2(=O)=O (centres unmarked) | 4 |
| COc1c(O)cc2c(c1O)[C@@H]1O[C@H](CO)[C@@H](O)[C@H](O)[C@H]1OC2=O | 13 |
| COc1cc(O)c2c(=O)cc(-c3ccc(O)cc3)oc2c1 | 6 |
| C=C1C(=O)[C@@]23[C@H](O)C[C@@H]4C(C)(C)C(=O)CC[C@@]4(C)[C@@H]2CC[C@@H]1[C@H]3O | 1 |

Sample 2 — mode: degrader; method: HiBiT kinetics; cell line: HEK293
SMILES: O=C1CCC(N2Cc3cc(C4CCN(Cc5ccccc5)CC4)ccc3C2=O)C(=O)N1 (centres unmarked)
Target: CRBN/Zinc finger protein Helios (Homo sapiens, UniProt Q96SW2+Q9UKS7)
UniProt Q9UKS7, sequence (whole entry, looked up): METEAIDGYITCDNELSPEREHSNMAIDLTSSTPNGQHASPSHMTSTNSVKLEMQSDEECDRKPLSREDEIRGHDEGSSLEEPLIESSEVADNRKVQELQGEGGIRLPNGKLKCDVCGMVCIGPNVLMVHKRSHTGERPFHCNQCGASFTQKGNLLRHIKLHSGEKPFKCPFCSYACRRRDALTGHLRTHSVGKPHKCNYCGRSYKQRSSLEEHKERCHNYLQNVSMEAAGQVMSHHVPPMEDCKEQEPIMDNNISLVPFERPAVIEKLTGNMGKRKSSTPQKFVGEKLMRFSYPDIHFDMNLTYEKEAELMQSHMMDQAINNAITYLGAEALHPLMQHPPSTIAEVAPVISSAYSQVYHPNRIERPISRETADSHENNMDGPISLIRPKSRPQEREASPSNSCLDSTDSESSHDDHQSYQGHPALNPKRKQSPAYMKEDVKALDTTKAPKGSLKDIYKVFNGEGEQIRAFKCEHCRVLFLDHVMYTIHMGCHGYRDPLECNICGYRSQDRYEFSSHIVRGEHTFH
UniProt Q96SW2, sequence (whole entry, looked up): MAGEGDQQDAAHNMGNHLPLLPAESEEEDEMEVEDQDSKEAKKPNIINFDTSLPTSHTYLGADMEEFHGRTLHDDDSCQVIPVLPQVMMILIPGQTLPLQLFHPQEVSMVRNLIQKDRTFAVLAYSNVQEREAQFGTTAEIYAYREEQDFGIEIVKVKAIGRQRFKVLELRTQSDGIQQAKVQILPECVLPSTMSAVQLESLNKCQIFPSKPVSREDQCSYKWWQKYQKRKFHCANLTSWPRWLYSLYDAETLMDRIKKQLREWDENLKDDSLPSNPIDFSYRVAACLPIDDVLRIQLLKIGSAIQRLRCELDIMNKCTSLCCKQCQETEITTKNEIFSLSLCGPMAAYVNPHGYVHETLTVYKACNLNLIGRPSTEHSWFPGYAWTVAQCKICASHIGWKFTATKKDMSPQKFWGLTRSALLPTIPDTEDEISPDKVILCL
| setting | protein remaining [%] |
| --- | --- |
| 0.4572 nM, 3 h | 75.6 |
| 1.372 nM, 0.5 h | 108 |
| 0.05081 nM, 3 h | 103 |
| 0.1524 nM, 3 h | 84.6 |
| 333.3 nM, 3 h | 29.4 |
| 0.05081 nM, 1 h | 105 |
| 1.372 nM, 1 h | 84.4 |
| 333.3 nM, 6 h | 19.6 |

Sample 3 — observed: binding; method: radioligand binding; concentration: 10 µM
SMILES: CCS(=O)(=O)c1cc2cc(C[C@@](O)(CC(C)(C)c3ccc(F)cc3C(N)=O)C(F)(F)F)[nH]c2cn1
| target | inhibition |
| --- | --- |
| ADRB3 (Homo sapiens, UniProt P13945) | 0.63% |
| ADRA1B (Homo sapiens, UniProt P35368) | 1.64% |
| HRH2 (Homo sapiens, UniProt P25021) | 6.84% |
| ADRA1D (Homo sapiens, UniProt P25100) | -14.8% |
| DRD1 (Homo sapiens, UniProt P21728) | 2.6% |
| HRH1 (Homo sapiens, UniProt P35367) | 6.19% |
| HTR7 (Homo sapiens, UniProt P34969) | 4.44% |
| CHRM4 (Homo sapiens, UniProt P08173) | 18.2% |
| HRH4 (Homo sapiens, UniProt Q9H3N8) | 2.05% |
| CHRM2 (Homo sapiens, UniProt P08172) | -8.82% |
| ADRA2C (Homo sapiens, UniProt P18825) | 5.83% |
| ADRA2B (Homo sapiens, UniProt P18089) | 6.5% |

Sample 4 — observed: enzyme activity; mode: inhibitor; concentration: 0.5 µM; baseline: control
Target: Tyrosine-protein kinase HCK (HCK, Homo sapiens, UniProt P08631)
UniProt P08631, sequence (whole entry, looked up): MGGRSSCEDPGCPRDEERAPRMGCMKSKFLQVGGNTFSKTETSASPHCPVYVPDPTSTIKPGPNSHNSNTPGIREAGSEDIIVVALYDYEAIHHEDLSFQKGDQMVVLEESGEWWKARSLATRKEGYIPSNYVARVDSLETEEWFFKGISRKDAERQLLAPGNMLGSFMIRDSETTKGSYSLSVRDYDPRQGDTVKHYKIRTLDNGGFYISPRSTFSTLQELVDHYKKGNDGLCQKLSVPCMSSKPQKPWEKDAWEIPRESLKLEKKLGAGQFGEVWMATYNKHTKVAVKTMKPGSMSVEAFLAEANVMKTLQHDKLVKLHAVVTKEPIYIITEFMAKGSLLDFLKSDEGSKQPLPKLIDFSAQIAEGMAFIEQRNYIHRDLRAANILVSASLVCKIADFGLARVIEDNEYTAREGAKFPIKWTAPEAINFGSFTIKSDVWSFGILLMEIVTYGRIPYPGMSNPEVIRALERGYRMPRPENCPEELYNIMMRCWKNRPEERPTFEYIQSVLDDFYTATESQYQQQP
| Structure (SMILES) | remaining activity [%] |
| --- | --- |
| CCCC(=O)Oc1ccc2[nH]c(C(=O)c3cc4ccccc4[nH]3)cc2c1 | 95.1 |
| COc1ccc(S(=O)(=O)N(CCO)c2ccccc2CN(C)CC=Cc2ccc(Cl)cc2)cc1 | 97.8 |
| Nc1ncnc2c1cnn2-c1ccccc1 | 92.4 |
| Nc1nccc(-c2c(-c3ccc(F)cc3)ncn2C2CCNCC2)n1 | 95.5 |
| CC(C)(C)n1nc(Cc2cccc3ccccc23)c2c(N)ncnc21 | 68.4 |
| O=S(=O)(NCCNC/C=C/c1ccc(Br)cc1)c1cccc2cnccc12 | 99.4 |
| Fc1ccc(-c2nc3n(c2-c2ccncc2)CCS3)cc1 | 101 |
| CC[n+]1c(/C=C/N(C)c2ccccc2)n(-c2ccccc2)c2ccc(-c3nc4ccccc4s3)cc21 | 104 |
| CC#CC(=O)Nc1cc2c(Nc3ccc(F)c(Cl)c3)ncnc2cn1 | 92.2 |
| Cc1cc(Nc2nc(-c3ccccc3)nc3ccccc23)n[nH]1 | 77.3 |
| Nc1nc(Nc2ccc(S(N)(=O)=O)cc2)nn1C(=O)c1c(F)cccc1F | 86.2 |
| Cc1cncc2cccc(S(=O)(=O)N3CCCN(C(=O)CN)C[C@@H]3C)c12 | 96.4 |
| CCc1[nH]c(-c2ccc(OC)cc2)nc1-c1ccncc1 | 95.1 |
| Oc1ccc(Nc2nc(-c3ccc(Cl)cc3)cs2)cc1 | 96.1 |
| O=C1Cc2c([nH]c3ccc([N+](=O)[O-])cc23)-c2ccccc2N1 | 71.8 |
| CSc1nc(-c2ccnc(N[C@@H](C)c3ccccc3)c2)c(-c2ccc(F)cc2)[nH]1 (racemic) | 83.5 |
| NC(=O)c1ccc(N(C(N)=O)c2c(F)cccc2F)nc1-c1ccc(F)cc1F | 89.5 |
| N#CC(=C(N)Sc1ccc(N)cc1)c1ccccc1C(F)(F)F | 93.9 |
| CC(=O)c1ccc(N2CCOCC2)cc1O | 116 |
| O=C1NC(=O)C(c2c[nH]c3ccccc23)=C1c1c[nH]c2ccccc12 | 96 |
| Cc1ccc(NC2=CC(=O)c3sc(C)nc3C2=O)cc1 | 94.4 |

Repeated from above (sample 3):
| target | inhibition |
| --- | --- |
| ADRA2C (Homo sapiens, UniProt P18825) | 5.83% |
| HRH1 (Homo sapiens, UniProt P35367) | 6.19% |
| ADRB3 (Homo sapiens, UniProt P13945) | 0.63% |
| CHRM2 (Homo sapiens, UniProt P08172) | -8.82% |
| ADRA1B (Homo sapiens, UniProt P35368) | 1.64% |
